Measured values gathered from unrelated publications.
Parts stem from different laboratories: compare values within a part only.

Series 1 — technique: protein binding microarray; molecule type: double-stranded DNA, one strand shown; sample: in vitro; tested at: not given; relative to: not given; reading: higher = stronger binding; quantity: E-score
Target: Histone acetyltransferase KAT6A, both winged helices, GST fusion (KAT6A, Homo sapiens, UniProt Q92794, residues 1-181)
Notes: 8-mer, flanks averaged, mean of 2 arrays, mostly near background
Residues (chain): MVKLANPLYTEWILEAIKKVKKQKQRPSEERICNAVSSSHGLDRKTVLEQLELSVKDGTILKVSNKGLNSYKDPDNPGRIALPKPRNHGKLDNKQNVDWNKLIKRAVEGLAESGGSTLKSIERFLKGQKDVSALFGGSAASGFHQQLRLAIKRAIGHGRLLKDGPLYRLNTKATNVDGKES
CGCCACAG: 0.0134
ATTACGTA: 0.0378
CGTCTTAC: 0.0445
AAATACTG: -0.185
CTAGATCA: -0.138
GGCTGTTA: 0.144
GGTAATCA: 0.0546
AGGGATAC: -0.131
TCAATGAA: -0.1
GGGCTGGA: -0.145
ATTATTAA: -0.00269
AGTTGGCG: 0.0652
ATGAAATG: -0.196
TAACACCA: -0.149
CCTTTAAC: 0.174
GCAGCGGA: 0.119
TCCACCGA: -0.0707
AATAACTG: -0.0405
GAGAGAGA: -0.137
CTATTCTA: -0.203
CTAAGGTC: -0.135
ATTTAAAC: -0.112
CAACAAGC: -0.102
GTTACACA: -0.0323
ACTGTAGA: -0.207

Series 2 — technique: RNA Bind-n-Seq; molecule type: RNA; sample: in vitro; tested at: 200 nM; notes: whole 134-nt RNA, ends assumed; added: 150 mM KCl; relative to: input library; reading: higher = stronger binding; quantity: log2 enrichment
Target: Ras GTPase-activating protein-binding protein 1, full length (G3BP1, Homo sapiens, UniProt Q13283)
Sequence of UniProt Q13283 (whole entry, looked up): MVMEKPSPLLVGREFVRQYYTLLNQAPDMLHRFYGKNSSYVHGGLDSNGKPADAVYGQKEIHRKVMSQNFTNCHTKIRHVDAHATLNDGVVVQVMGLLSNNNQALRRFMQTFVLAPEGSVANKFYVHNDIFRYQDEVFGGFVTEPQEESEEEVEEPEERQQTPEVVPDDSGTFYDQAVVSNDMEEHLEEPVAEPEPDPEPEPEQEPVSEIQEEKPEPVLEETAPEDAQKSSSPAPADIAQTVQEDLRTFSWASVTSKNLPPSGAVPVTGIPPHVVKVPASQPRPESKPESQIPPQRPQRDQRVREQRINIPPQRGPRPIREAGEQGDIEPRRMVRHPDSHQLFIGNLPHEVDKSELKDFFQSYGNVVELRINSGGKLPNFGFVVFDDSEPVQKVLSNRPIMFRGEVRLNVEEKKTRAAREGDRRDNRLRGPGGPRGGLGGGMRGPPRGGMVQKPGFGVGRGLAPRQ
Constant ends, left off below: GGGAGUUCUACAGUCCGACGAUC … UGGAAUUCUCGGGUGUCAAGG
UCCUGUGCUACACAUCGUAUGUACCGAAUCGGGGUUUUUUUGGGGAAAGGGGAAAGGGGAAAGUAUUAUGUUACGCCGUUCGGAUCUGCA: 0.798
AGUCCUGUGCUACACAUCGUAUGUACCGAAUCGGGGUGGGGUUUUUGGGGAAAGGGGAAAGUAUUAUGUUACGCCGUUCGGAUCUGCACU: 0.576
UGGGAGGUGGAUUUUGUUUAUUUUUUUAGCUCAUUUCCAGGGGUGGGAAUAUUUUUUUAAUAUGUGUCAUGAAUAAAGUUGUUUUUGAAA: 0.157
AAGUCCUGUGCUACACAUCGUAUGUACCGAAUCGGGUUUGGGUUUUUGGGUUUGGGAAAGUAUUAUGUUACGCCGUUCGGAUCUGCACUU: 0.278
CUCAAGUCCUGUGCUACACAUCGUAUGUACCGAAUCGGUUUGGUGGAAAAAGGAAAGUAUUAUGUUACGCCGUUCGGAUCUGCACUUCCA: -0.325
CAAGUCCUGUGCUACACAUCGUAUGUACCGAAUCGGAGGUUUUUUUGGUUUUUGGAAAGUAUUAUGUUACGCCGUUCGGAUCUGCACUUC: -1.24
UGGAUGGACACCAUUAUCGUCGUGUGGCACGGGUUGACCUAAGGAAGAAGACAGAGACUUUCUCCACAAGAAGGGUUAAGUCUGGGCUGU: -0.0932
CAAGUCCUGUGCUACACAUCGUAUGUACCGAAUCAAAUUUAAACCCAAAUUUAAAAAAGUAUUAUGUUACGCCGUUCGGAUCUGCACUUC: -0.404
CCUCAAGUCCUGUGCUACACAUCGUAUGUACCGAAUCGGAAGGAAGGGAAGGGAAAGUAUUAUGUUACGCCGUUCGGAUCUGCACUUCCA: -0.484
AAGUCCUGUGCUACACAUCGUAUGUACCGAAUCGGAAAAGGGAAAAGGAAAAGGGGAAAGUAUUAUGUUACGCCGUUCGGAUCUGCACUU: -0.906
CAAGUCCUGUGCUACACAUCGUAUGUACCGAAUCGGGUUUGGGUUUUUGGGUGGGAAAGUAUUAUGUUACGCCGUUCGGAUCUGCACUUC: 0.604
GGCAAGAGGAGGAACGACGUAGAAGAGAGGAAGAGAUGAUGAUUCGUCAACGUGAGAUGGAAGAACAAAUGAGGCGCCAAAGAGAGGAAA: 1.2
AGUUACUCAGUUCAUUUUGGAUAACUACAUUGAAAGAGGAAAAGGAUCUGCUUGCAGAAUAGUUUGUACUCAGCCAAGAAGAAUUAGUGC: -2.13
UGGCCCUGGUGGCAUGCGGGGAGGAAGAGGUGGCCUCAUGGAUCGUGGUGGUCCCGGUGAAAUGUUCAGAGGUGGCCGUGGUGGAGACAG: -0.103

Series 3 — technique: aptamer microarray, sandwich; molecule type: DNA with 2'F-ANA; sample: in vitro; tested at: 200 nM; added: Cy3 exosite-II aptamer, 400 nM; reading: higher = stronger binding; quantity: mean fluorescence intensity; oligonucleotide: GGTTGGTGTGGTTGG
Target: Prothrombin, mature alpha-thrombin (F2, Homo sapiens, UniProt P00734)
Notes: whole 15-mer aptamer, many near background
2'F-ANA at 6 8 9 11 12 13: 567 a.u.
2'F-ANA at 1 2 3 4 5 6 7 8 9 10 11 12 13 14: 51.2 a.u.
2'F-ANA at 1 4 9 10 11 12 13 15: 55.3 a.u.
2'F-ANA at 2 3 5 9 10 12 13: 86 a.u.
2'F-ANA at 2 6 7 14: 141 a.u.
2'F-ANA at 1 3 4 6 7 9 12: 355 a.u.
2'F-ANA at 1 3 4 6 7 8 9 10 12 13 15: 77.9 a.u.
2'F-ANA at 2 3 5 7 11 12 13: 161 a.u.
2'F-ANA at 1 3 4 5 6 7 8 10 12 13 14: 49.5 a.u.
2'F-ANA at 2 3 4 7 8 10 14 15: 174 a.u.
2'F-ANA at 2 3 4 8 14 15: 322 a.u.
2'F-ANA at 3 6 7 9 10 11 12 15: 491 a.u.
2'F-ANA at 1 2 4 6 8 9 10 11 12 15: 82.2 a.u.
2'F-ANA at 3 5 6 7 10 13: 59.1 a.u.
2'F-ANA at 1 2 3 7 8 9 11 12 15: 381 a.u.
2'F-ANA at 1 3 6 13: 230 a.u.
2'F-ANA at 1 4 7 9 10 11 12: 57.5 a.u.
2'F-ANA at 6 9 11 12 13 15: 452 a.u.
2'F-ANA at 2 3 4 6 7 11 13: 333 a.u.
2'F-ANA at 4 10 11 12 14 15: 58.7 a.u.

Series 4 — technique: RNA Bind-n-Seq; molecule type: RNA; sample: in vitro; tested at: 365 nM; relative to: no-protein control; reading: higher = stronger binding; quantity: RBNS enrichment (R)
Target: RNA binding protein fox-1 homolog 2, RRM domain, GST-SBP tag (RBFOX2, Homo sapiens, UniProt O43251-10, residues 100-194)
Notes: natural RNA segment, single round, ends assumed
Constant ends, left off below: GGGAGUUCUACAGUCCGACGAUC … UGGAAUUCUCGGGUGCCAA
Residues (chain): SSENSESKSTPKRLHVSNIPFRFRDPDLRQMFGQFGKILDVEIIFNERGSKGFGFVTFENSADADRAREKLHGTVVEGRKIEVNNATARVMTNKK
UCUCUUUCAAGUGCCUUAAUCCGAGCCAGCAGGGCCUUCUGCUUGCCUGCUGCCAUACUGUAUGUAGGAAAGUGUUCUGUGGCUGCUUUGUGUCAAGAAAAGAGCAGUCA: 0.506
CCACAUUAGAGGCUGGGAACAGCCAGGAUGUUGCCAAAGCCCCUGGCCUUUCCUGUACACGCCUGUGACUGGCAGCCACAUGGUUUCUGCUUAUUAACGUGAGCCUCCCU: 0.322
AGACCAGGAGAGAAUUUGGGCCCUUACUGACCUGUCCUCCUUCAGGGACAUGAGCAUUCCCUAUAGAUUAGGGUUCUUCUUAUCCUCCUAUACAAAUUUCUUAAAUUGUU: 0.415
UAUUGUCCUUAACUUUAAGAUGUCAUUUCCUGAGACAGACUGUAUGAAGCUAUUGUCAGCUUCUCUAUUUCAAAUGCAAUCAGCAUAUAUCUAUAUUGAUAUCAGAAAAU: 0.342
AAUAUGGCUGGAUAAUAAACACUCCUGGGUAGAGGAGGCCAGGAGCCUCACUGUCCCAAUUCCCAAAUUUUUCUUACAGAGAUUCAGGGCCUUCAAGAGUCUUCUUAAUG: 0.374
GUGUUGAUGUGUGUUUUCCCUAAAACUCUAAUUUCAUCUCAUCUGUGGGCAGCCCUGCUCUCUGGACACCAGUGGGUCCUCAGCCCCCAUGGCAGGGGCUCCUCUGUCUG: 0.403
AAAAAUUUGUUUUGUAUAAAGAGGUUAGCCCUGCGCACGUAGGACUGAAUUCAGUGAUAUCCCUAUACACUGCCAUUUAGUGGAUAGGUUAUUGUACUUCCAUUCAUACU: 0.289
CUCUUCUCAGCCUCCUCCCUCUUUUGUCCUCUUUUCCUCUCCUGCCUGAGCAGUACCAAGGUCUUACUGUCUCUAUUCCUUUCUCCAUGGCCUGCUUUGCCUGGGUUGUG: 1.08
AAAAUGAGCCCUCACUUCAGCCUGUAUCUAGCACGUGGGGCAGCUGCCUAGCUGACUGCUGCACAAGGCUGACUCUGGGCUCUACCCACCCUGCCUGAUGAGCCCUUCAC: 0.309
ACUAUUAAACUGAUUAAGGCUGUUUAUUUUUACUCCUAGAAAUGGUCAUAUGAAGUAGAUGUGCAAUCAUGUAGACAGCAGGCCAAGGUGAUCAGUGGCUAAAGUUGAAA: 0.648
CCCGCCCAGGCUGGCCAGCCCCACAGCCCACGUCCUGUCAGUGCCGCCGCCUCGCCCACCGCAUGCCCCCUCGUGCCAGUCGCGCUGCCUGUGUGGUGUCGCGCCUUCUC: 3.75
ACACAACAACAUCUGUACAAGCAUAUAUAUUUCAAAUCCAAGAUCUUGCCCUGUAACCCAUAUCUACUGUUCUGGCGACAAAAGACAGAUGUUAAGUGUAACAGAUAAUU: 1.06
